Measurements pooled from the literature.
Every numbered part comes from another study and shows a few of its results, in no order. Substitutions count along the parent as printed.

Series 1
Target: RNA binding protein fox-1 homolog 2, RRM domain, GST-SBP tag (RBFOX2, Homo sapiens, UniProt O43251-10, residues 100-194)
Technique: RNA Bind-n-Seq
Form: RNA
Matrix: in vitro
Tested at: 365 nM
Notes: natural RNA segment, single round, ends assumed
Reference: no-protein control
Direction: higher = stronger binding
All sequences stand within: GGGAGUUCUACAGUCCGACGAUC … UGGAAUUCUCGGGUGCCAA
Residues (chain): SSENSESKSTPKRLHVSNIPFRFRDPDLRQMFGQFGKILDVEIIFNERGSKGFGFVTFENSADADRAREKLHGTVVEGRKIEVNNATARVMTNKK
Strand | RBNS enrichment (R)
CCCAGCACGCUGCUGGCAGAGAUGGUUUGAGAACACAUCCAAGCCAGUCCCCCCAGCCCAGCUUCCCCUCCGUUCCUAACUGUUGGCUUUCCCCCAGCCGCACGGGUCCC | 2.24
AAAAAGCUUUGUAGGACACUUGUACUUAGUUUGGGAAAAAAAAAUAAAUUGAAAUUGUUAUGCUUUUGUAUUUCCAUUUCUUGCAAAUAAAUAUUUUUUCUUAAAUAGUA | 0.67
AUAAAACAACCCUGCAGCAGGGGUCCGAAGGGCACAAGUGUGACCGCCUCUCUGUAGCUAAGCACAGUUAGGCUGGGUGAUUUGGAUCCCGACUCGCAUCUGGUAUUGUA | 0.513
UUUGGUUAUUUUCAUAAUCUGGUAUUGCAUUUUGCCUUCCCUGUUCAUACCUCAAAUUGAUUCAUACCUCAGUUUAAUUCAGAGAGGUCAGUUAAGUGACGGAUUCUGUU | 1.52
AAGAAUACCACACUUUAAUAUUAAAUAUUCAUAAGGUCUAGUAUCUUGAUAAUAAUGUAGAUGUUUUAAUAACAAUUUUUGUCCUUCUUAAAAUAAAAUGAAAGAAACUU | 1.25
CGAGUUUGAGGCAGUCUUGCAAGAUUCUCAGACUAAUUUCCAAAAGGAAACCGGAUGCCAACUUCCCACGGGUUUACUGUGCCUCUGGCAUCCAGGGUCUUCAGUUUCCC | 0.239
AGAGUACCUGCUGCUGUAUCUUGGAAGAUGACAACAUCCUUUUUCAUUACUGUUUGAUUGAAAAUAAUUUCAAGAUUCAAAAUCUCAUUGACUUCCCAAAUUUGUGUUUU | 1.11
UGGAGCAGGAUCCUAAGGACGCACAAUAUCAGUUGUGCGUGCUGUAAAGGGACAAACCGAGGAAGUAGAGGAAGCUGCGGCACUGUGACCCAUUCAAGGCUAGCACAGUU | 0.366

Series 2
Target: CCNB3, cyclin fold, Cln2 fusion (human)
Technique: yeast growth competition, sequencing
Matrix: yeast
Notes: strong parent motif
Reference: not given
Direction: higher = stronger binding
Starting sequence: SCAPER docking peptide (human); SNARRSLNFGGST
Variant | normalised enrichment score
R4E | -0.115
A3N | 0.483
R4I | 0.698
L7Y | 0.0635
N2C | 1.33
S1R | 1.35
S6G | 0.351
S12P | 2.21
L7T | 0.11
R5M | 0.534
N2F | 2.28
N8E | 1.07
S6I | 1.79
G11E | 1.24
F9I | 0.266
R4D | 0.294
N8W | 1

Series 3
Target: ABI1, truncated, D143A, DHFR fusion (Arabidopsis thaliana)
Technique: DHFR PCA, deep sequencing
Matrix: yeast
Notes: methotrexate growth selection, single substitutions
With: (+)-ABA 0 µM
Reference: wild-type fitted maximum
Direction: higher = stronger binding
Starting sequence: PYL1, truncated, DHFR fusion (Arabidopsis thaliana); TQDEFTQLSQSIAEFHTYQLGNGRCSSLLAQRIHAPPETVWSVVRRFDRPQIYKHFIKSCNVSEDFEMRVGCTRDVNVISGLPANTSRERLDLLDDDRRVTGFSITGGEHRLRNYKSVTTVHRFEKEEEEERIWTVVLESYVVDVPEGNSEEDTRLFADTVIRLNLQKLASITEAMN
Variant | relative binding score
R90D | -2.92%
T173F | -9.42%
T106N | -9.29%
T160Q | -3.27%
G21H | 14.8%
Q31F | -1.5%
E14Y | 0.00137%
N149C | 61.2%
R24G | 4.76%
S42G | 22.4%
R155C | 2.92%
E152C | 2.41%
I52N | 3.52%

Series 4
Target: Histone acetyltransferase KAT6A, winged helix 2, GST fusion (KAT6A, Homo sapiens, UniProt Q92794, residues 85-181)
Technique: protein binding microarray
Form: double-stranded DNA, one strand shown
Matrix: in vitro
Tested at: not given
Notes: 8-mer, flanks averaged, mean of 2 arrays, mostly near background
Reference: not given
Direction: higher = stronger binding
Target sequence (chain): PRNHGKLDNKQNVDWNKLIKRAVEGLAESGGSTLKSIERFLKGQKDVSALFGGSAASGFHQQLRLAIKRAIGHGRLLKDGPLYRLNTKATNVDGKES
Strand | E-score
ACGTAGGC | -0.0307
GAACGGGA | 0.0905
TCGCACGA | 0.0433
CGGTCCAC | -0.037
GAAGCAAA | 0.0562
GGGATGCA | 0.0422
AACTGTCA | -0.202
CTCTGGTA | -0.0144
ATAGTCAG | -0.0208
AAAGCCAA | 0.103
GCCTGTTA | -0.148
AGCCGCCG | 0.133
GATATAGC | -0.0667
GAGCCCTA | 0.0418
CGTTTCCC | 0.0442
CTTCGAAG | 0.0989
CTCGTAAC | -0.144
CCTTACAG | -0.0618
CAGACCAA | 0.101
AAGACTGA | -0.0713
CGGATCGC | 0.06

Series 5
Target: Hepatocyte nuclear factor 3-beta, forkhead domain (FOXA2, Homo sapiens, UniProt Q9Y261, residues 142-269)
Technique: protein-binding microarray
Form: double-stranded DNA, one strand shown
Matrix: in vitro
Tested at: not given
Notes: k-mer, scored over probes, only values ≥0.25
Direction: higher = stronger binding
Target sequence (chain): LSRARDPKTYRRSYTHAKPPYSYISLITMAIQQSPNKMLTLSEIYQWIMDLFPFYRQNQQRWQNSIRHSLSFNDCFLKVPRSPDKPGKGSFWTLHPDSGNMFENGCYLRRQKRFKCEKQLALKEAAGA
Strand | E-score
ATATTCTA | 0.282
ACACTCAT | 0.262
CGACTATA | 0.312
GCAAATAA | 0.314
TAGAAATA | 0.276
ACATCATA | 0.284
ATGTATCA | 0.301
GTATAGAC | 0.331
CGTTACTA | 0.253
AAACAACT | 0.304
AATATGGA | 0.328
CAAATATC | 0.314
ATTGACAA | 0.27
AGATAGTA | 0.258
AAGTACTA | 0.313
AATGTAAG | 0.276
ATATCGGA | 0.276
AATAGCAA | 0.299
AATGTTAT | 0.307
GTTAAACA | 0.357

Repeated from above (series 4):
Strand | E-score
CTCTGGTA | -0.0144
GAGCCCTA | 0.0418
GCCTGTTA | -0.148
TCGCACGA | 0.0433
ATAGTCAG | -0.0208
CGGTCCAC | -0.037
AACTGTCA | -0.202
CCTTACAG | -0.0618
GATATAGC | -0.0667
CAGACCAA | 0.101
AAAGCCAA | 0.103
GAAGCAAA | 0.0562
AAGACTGA | -0.0713
